{"data": "Measurements from different studies", "note": "Protocols differ between the studies behind these lines.", "UniProt P78368, sequence (whole entry, looked up)": "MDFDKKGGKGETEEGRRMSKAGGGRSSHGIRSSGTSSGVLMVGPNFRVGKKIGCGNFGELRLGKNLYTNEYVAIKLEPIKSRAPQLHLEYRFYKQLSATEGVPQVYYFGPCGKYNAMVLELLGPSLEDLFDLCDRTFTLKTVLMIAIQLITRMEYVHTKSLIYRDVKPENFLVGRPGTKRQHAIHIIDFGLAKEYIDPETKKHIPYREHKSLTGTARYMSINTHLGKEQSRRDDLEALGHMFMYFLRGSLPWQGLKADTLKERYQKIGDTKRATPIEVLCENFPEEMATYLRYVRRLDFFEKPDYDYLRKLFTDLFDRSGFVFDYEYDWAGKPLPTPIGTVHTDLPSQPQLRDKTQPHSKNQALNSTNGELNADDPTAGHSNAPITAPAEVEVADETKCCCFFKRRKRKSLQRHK", "UniProt Q99759, sequence (whole entry, looked up)": "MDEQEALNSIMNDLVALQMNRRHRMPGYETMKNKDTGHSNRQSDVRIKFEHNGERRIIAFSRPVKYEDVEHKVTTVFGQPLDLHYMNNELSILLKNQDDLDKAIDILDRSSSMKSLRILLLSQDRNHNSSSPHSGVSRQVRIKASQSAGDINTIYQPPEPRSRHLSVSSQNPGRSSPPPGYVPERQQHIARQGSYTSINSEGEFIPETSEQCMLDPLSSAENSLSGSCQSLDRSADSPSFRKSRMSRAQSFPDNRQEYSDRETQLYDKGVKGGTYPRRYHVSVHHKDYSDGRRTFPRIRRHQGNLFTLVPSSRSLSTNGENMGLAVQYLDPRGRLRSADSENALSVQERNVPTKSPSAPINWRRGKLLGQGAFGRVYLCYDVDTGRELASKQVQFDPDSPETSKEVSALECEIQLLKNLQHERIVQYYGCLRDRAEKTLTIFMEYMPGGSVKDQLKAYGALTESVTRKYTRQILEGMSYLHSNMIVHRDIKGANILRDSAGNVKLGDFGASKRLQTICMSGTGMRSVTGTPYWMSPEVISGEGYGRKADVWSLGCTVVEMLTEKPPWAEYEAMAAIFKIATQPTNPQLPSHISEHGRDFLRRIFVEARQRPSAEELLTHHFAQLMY", "UniProt P29597, sequence (whole entry, looked up)": "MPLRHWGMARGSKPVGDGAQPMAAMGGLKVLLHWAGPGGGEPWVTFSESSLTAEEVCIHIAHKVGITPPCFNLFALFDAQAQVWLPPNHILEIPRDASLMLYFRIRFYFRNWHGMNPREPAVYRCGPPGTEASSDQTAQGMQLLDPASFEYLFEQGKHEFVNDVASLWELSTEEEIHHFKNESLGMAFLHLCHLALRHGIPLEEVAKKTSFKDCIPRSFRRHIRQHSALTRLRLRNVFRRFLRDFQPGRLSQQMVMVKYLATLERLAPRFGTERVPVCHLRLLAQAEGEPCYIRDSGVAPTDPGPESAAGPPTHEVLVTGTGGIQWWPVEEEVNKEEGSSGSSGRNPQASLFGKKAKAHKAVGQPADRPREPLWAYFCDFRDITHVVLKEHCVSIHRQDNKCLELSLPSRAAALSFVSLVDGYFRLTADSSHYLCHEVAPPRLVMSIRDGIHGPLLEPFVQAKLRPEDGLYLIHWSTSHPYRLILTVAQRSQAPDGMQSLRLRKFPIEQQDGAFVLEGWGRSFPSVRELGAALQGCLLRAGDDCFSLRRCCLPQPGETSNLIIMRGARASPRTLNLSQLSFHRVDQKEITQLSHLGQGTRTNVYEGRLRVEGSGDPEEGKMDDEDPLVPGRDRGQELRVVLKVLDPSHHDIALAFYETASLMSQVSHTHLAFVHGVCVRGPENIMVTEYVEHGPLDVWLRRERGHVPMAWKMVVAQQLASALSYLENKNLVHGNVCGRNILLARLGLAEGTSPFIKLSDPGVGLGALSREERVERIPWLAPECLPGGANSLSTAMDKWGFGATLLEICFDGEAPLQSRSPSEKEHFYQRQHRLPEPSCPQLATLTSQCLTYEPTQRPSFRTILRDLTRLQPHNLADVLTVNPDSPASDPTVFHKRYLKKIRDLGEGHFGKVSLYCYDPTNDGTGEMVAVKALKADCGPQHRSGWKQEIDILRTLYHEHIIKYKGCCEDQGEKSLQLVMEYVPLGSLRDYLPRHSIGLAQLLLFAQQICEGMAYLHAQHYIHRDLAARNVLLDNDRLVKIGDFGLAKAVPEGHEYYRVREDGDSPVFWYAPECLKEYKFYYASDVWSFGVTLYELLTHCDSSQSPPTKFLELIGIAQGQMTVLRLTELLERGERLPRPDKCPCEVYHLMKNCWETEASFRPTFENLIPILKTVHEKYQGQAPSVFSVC", "UniProt Q8WXR4, sequence (whole entry, looked up)": "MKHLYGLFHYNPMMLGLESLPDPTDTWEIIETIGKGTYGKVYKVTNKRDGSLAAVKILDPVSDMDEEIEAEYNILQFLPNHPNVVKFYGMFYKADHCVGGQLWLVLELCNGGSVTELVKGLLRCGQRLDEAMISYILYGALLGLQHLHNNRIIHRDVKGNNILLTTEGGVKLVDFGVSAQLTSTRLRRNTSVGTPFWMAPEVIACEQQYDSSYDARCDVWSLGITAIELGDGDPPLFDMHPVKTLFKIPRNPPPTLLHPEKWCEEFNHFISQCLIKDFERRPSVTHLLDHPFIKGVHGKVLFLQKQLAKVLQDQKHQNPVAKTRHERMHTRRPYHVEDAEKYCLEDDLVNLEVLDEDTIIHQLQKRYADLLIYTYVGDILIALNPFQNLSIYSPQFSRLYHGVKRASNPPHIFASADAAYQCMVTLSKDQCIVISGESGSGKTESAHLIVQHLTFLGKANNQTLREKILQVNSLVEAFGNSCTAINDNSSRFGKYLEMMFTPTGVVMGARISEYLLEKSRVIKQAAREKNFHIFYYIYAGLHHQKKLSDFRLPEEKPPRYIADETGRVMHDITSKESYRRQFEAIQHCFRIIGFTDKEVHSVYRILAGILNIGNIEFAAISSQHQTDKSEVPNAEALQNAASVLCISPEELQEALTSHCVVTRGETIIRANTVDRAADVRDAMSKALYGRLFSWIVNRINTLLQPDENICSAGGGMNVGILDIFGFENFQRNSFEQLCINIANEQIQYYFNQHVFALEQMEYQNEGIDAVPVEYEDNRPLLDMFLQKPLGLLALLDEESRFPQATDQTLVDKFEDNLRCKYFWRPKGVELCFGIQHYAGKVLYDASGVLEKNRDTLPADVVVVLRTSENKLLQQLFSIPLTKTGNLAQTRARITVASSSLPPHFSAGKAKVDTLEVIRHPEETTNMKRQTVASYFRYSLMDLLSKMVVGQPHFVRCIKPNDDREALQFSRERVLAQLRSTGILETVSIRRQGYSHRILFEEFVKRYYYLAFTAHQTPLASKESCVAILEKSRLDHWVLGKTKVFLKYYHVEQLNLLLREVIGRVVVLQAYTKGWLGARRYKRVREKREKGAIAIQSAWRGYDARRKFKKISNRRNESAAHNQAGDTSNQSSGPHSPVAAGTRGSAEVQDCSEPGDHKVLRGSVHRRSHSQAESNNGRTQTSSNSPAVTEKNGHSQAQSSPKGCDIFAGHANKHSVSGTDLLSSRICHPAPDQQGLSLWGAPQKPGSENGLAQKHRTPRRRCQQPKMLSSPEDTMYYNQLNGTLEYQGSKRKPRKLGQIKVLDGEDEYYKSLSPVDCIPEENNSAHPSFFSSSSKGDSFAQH", "UniProt Q8N752, sequence (whole entry, looked up)": "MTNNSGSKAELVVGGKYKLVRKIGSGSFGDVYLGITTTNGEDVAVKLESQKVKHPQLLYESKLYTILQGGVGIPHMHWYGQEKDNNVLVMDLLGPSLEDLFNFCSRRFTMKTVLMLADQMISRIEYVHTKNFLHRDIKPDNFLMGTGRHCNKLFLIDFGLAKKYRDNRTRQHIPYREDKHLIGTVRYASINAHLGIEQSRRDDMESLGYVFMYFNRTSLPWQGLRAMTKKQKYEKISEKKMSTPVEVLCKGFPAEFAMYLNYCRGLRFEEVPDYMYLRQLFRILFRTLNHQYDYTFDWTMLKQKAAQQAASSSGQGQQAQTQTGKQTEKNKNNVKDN"}
{"SMILES": "CCN(O)N=Nc1ccc(S(=O)(=O)Nc2cc(C)on2)cc1", "assay": "ABTS scavenging", "conditions": "240 µg/mL", "quantity": "inhibition", "result": "31.5%"}
{"SMILES": "CCN(Cc1cccc(F)c1F)c1ccc(CO)c(Cl)c1", "tested on": "RBE", "assay": "cell growth or viability, ATP luminescence", "conditions": "46 µM, 72 h", "quantity": "inhibition", "result": "56%"}
{"SMILES": "CNc1ncc2c(/C=C/C(=O)N3CCC(OC)CC3)nn(Cc3cccc(C(F)(F)F)c3)c2n1", "tested on": "Mitogen-activated protein kinase kinase kinase 3 (MAP3K3, Homo sapiens, UniProt Q99759)", "assay": "enzyme activity, inhibitor, radiometric", "conditions": "1 µM", "quantity": "remaining activity", "result": "102%"}
{"SMILES": "CCN(Cc1c(F)cccc1C(F)(F)F)c1ccc(CO)c(Cl)c1", "tested on": "RBE", "assay": "cell growth or viability, ATP luminescence", "conditions": "46 µM, 72 h", "quantity": "inhibition", "result": "57%"}
{"SMILES": "Cc1cc(=O)oc2ccc(-c3cc(-c4cccs4)nc(N)n3)c(O)c12", "tested on": "KB", "assay": "cell growth or viability, MTT", "conditions": "2 µg/mL, 72 h", "quantity": "inhibition", "result": "0%"}
{"SMILES": "CCC(=CCc1c(O)cc2c(c1O)C(=O)C[C@@H](c1ccc(O)cc1)O2)CC", "tested on": "HeLa", "assay": "cell growth or viability, MTT", "conditions": "3.125 µM, 48 h", "quantity": "inhibition", "result": "-2.7%"}
{"SMILES": "C=CC(=O)N1CCC(COCC(=O)N2CCN(c3nc(-c4cnc(N)nc4C(F)F)nc(N4CCOC[C@@H]4C)n3)CC2)CC1", "tested on": "Casein kinase I isoform alpha-like (CSNK1A1L, Homo sapiens, UniProt Q8N752)", "assay": "binding, competition with immobilised ligand", "conditions": "1 µM", "quantity": "remaining binding", "result": "97%"}
{"SMILES": "CCCCC(=O)Nc1ccc(-c2ccc3ncn(CCC)c(=O)c3c2)cn1", "tested on": "Non-receptor tyrosine-protein kinase TYK2, JH2 (TYK2, Homo sapiens, UniProt P29597)", "assay": "binding, competition with immobilised ligand", "conditions": "0.5 µM", "quantity": "remaining binding", "result": "100%"}
{"SMILES": "C=C(COCc1ccccc1)[C@@H]1CC[C@@H](C)C[C@H]1OCc1ccccc1", "tested on": "HeLa", "assay": "cell growth or viability, MTT", "conditions": "30 µM, 72 h", "quantity": "inhibition", "result": "44.5%"}
{"SMILES": "CCN(Cc1ccccc1OC)c1ccc(CO)c(Cl)c1", "tested on": "RBE", "assay": "cell growth or viability, ATP luminescence", "conditions": "46 µM, 72 h", "quantity": "inhibition", "result": "66%"}
{"SMILES": "Cc1cc(NS(=O)(=O)c2ccc(N=NN(O)c3ccccc3)cc2)no1", "assay": "ABTS scavenging", "conditions": "180 µg/mL", "quantity": "inhibition", "result": "71.2%"}
{"SMILES": "C[C@@H]1CC[C@@H]([C@](C)(O)CNCc2ccccc2F)[C@H](OCc2ccccc2)C1", "tested on": "A2780", "assay": "cell growth or viability, MTT", "conditions": "30 µM, 72 h", "quantity": "inhibition", "result": "98.1%"}
{"SMILES": "Cc1cc([C@@H](C)Nc2ccccc2C(=O)O)c2nc(N3CCC(F)(F)CC3)c(C#N)c(=O)n2c1", "tested on": "Casein kinase I isoform gamma-2 (CSNK1G2, Homo sapiens, UniProt P78368)", "assay": "binding, competition with immobilised ligand", "conditions": "10 µM", "quantity": "remaining binding", "result": "100%"}
{"SMILES": "CCC(=CCc1c(O)cc2c(c1O)C(=O)C[C@@H](c1ccccc1O)O2)CC", "tested on": "HeLa", "assay": "cell growth or viability, MTT", "conditions": "60 µM, 48 h", "quantity": "inhibition", "result": "47.7%"}
{"SMILES": "C[C@@H]1CC[C@@H]([C@](O)(CNCc2ccccc2)COCc2ccc(F)cc2)[C@H](OCc2ccc(F)cc2)C1", "tested on": "HeLa", "assay": "cell growth or viability, MTT", "conditions": "10 µM, 72 h", "quantity": "inhibition", "result": "98.2%"}
{"SMILES": "Cc1cc(Nc2ncc(Cl)c(Nc3ccccc3S(=O)(=O)C(C)C)n2)c(OC(C)C)cc1C1CCNCC1", "tested on": "NCI-H3122", "assay": "cell growth or viability, MTT", "conditions": "0.016 µg/mL, 72 h", "quantity": "inhibition", "result": "23.3%"}
{"SMILES": "C[C@@H]1CC[C@@H]([C@@](O)(CNCc2ccccc2)COCc2ccccc2)[C@H](OCc2ccccc2)C1", "tested on": "HeLa", "assay": "cell growth or viability, MTT", "conditions": "10 µM, 72 h", "quantity": "inhibition", "result": "97.4%"}
{"SMILES": "Cc1cc(=O)oc2ccc(-c3cc(-c4ccccc4)nc(N)n3)c(O)c12", "tested on": "KB", "assay": "cell growth or viability, MTT", "conditions": "2 µg/mL, 72 h", "quantity": "inhibition", "result": "0%"}
{"SMILES": "OCc1ccc(-c2nn(-c3ccccc3)c3ccccc23)o1", "tested on": "RBE", "assay": "cell growth or viability, ATP luminescence", "conditions": "46 µM, 72 h", "quantity": "inhibition", "result": "78%"}
{"SMILES": "COc1ccc(CNC[C@@](C)(O)[C@@H]2CC[C@@H](C)C[C@H]2OCc2ccccc2)cc1", "tested on": "A2780", "assay": "cell growth or viability, MTT", "conditions": "30 µM, 72 h", "quantity": "inhibition", "result": "93.9%"}
{"SMILES": "CCN(Cc1ccc(OC)cc1)c1ccc(CO)c(Cl)c1", "tested on": "RBE", "assay": "cell growth or viability, ATP luminescence", "conditions": "46 µM, 72 h", "quantity": "inhibition", "result": "83%"}
{"SMILES": "COc1cc(-c2cncc3c2CN(C)Cc2cc(N4CCNCC4)ccc2-3)cc(OC)c1OC", "tested on": "Myosin-IIIb (MYO3B, Homo sapiens, UniProt Q8WXR4)", "assay": "enzyme activity, inhibitor", "conditions": "1 µM", "quantity": "remaining activity", "result": "104%"}
{"note": "Some of these lines once more:"}
{"SMILES": "Cc1cc(Nc2ncc(Cl)c(Nc3ccccc3S(=O)(=O)C(C)C)n2)c(OC(C)C)cc1C1CCNCC1", "tested on": "NCI-H3122", "assay": "cell growth or viability, MTT", "conditions": "0.016 µg/mL, 72 h", "quantity": "inhibition", "result": "23.3%"}
{"SMILES": "CCN(Cc1c(F)cccc1C(F)(F)F)c1ccc(CO)c(Cl)c1", "tested on": "RBE", "assay": "cell growth or viability, ATP luminescence", "conditions": "46 µM, 72 h", "quantity": "inhibition", "result": "57%"}
{"SMILES": "CCN(O)N=Nc1ccc(S(=O)(=O)Nc2cc(C)on2)cc1", "assay": "ABTS scavenging", "conditions": "240 µg/mL", "quantity": "inhibition", "result": "31.5%"}
